Measurements gathered from unrelated publications.
Numbered parts are unrelated; each lists some results of a single study.

Sample 1 — technique: RNA Bind-n-Seq; molecule type: RNA; sample: in vitro; concentration: not given; reference: input RNA pool; direction: higher = stronger binding
Target: RING finger protein unkempt homolog, zinc fingers 1-6, GST-SBP tag (UNK, Homo sapiens, UniProt Q9C0B0, residues 30-357)
Setting: RNA with constant flanks, human-mouse chimeric sites, ends assumed
Shared flanks, not repeated: GGGAGUUCUACAGUCCGACGAUC … CAACAGAGGAUUGAGCAUCA
Construct (chain): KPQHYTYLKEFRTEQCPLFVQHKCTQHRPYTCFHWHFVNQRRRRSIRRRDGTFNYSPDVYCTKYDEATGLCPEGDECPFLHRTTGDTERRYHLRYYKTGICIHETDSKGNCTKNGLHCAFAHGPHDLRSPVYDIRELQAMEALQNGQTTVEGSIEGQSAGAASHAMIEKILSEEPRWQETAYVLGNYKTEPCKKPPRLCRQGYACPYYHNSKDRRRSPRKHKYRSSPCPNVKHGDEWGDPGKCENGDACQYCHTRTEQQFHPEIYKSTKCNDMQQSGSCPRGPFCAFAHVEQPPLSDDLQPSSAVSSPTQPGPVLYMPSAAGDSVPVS
Sequence	bound/input enrichment [ratio]
AAAGUGGACUAUGGUGAGUACAUGGAUAAAAACAAUGUGAGGCGGCAAGCAACAACAAUCAUAGCUGAUAACAUUAUAUUUCUGAGUGACCAGACAAAAGAGAAGGAAUAGAACGGAUGA	2.07
CUGUUUUGACAGCCACACAAUCUUGGCAUGUAUUAAGGAAAAAAAAAAUCCCUGUUGAAGUAGUUUUUCCACCUAUCAGCACUGAGUAAAUGCCAUAAAUCCAUUGAAAUGGUCUAAAUA	0.286
CACAGAGGAGAUCUGCUGUUCCUCACAAAUUUCCGGGAGGACCCCAUCAGAGCUGGUGAAAUAGUUGUUUUUAAGGUUGAAGGACGAGACAUUCCGAUAGUUCACAGAGUAAUCAAGGUU	4.1
GGGGAGAAACCUUAUGAGUGUGUGCAGUGUGGGAAAUCCUACAGUCAGAGCUCAAACCUCUUCAGACAUCAGAGACGACACAAUGCAGAAAAACUUUUGAAUGUUGUGAAAGUUUAAGAA	0.207
GAGUCGAGCAAACUUGAAACUACAGAAUAUCUUGCAGCCUCAGUGUUCACUUGCUUGGCGAUAGCAUUGGGGUUUUAUAGGUUCUGGAAGGAGAACUGACGAUGAUGUCCUGCUGUGUGC	0.0943
AUAAAGGCUAUGUUGAGUGGCCCAGGUCAGUUUGCUGAGAAUGAAACCAAUGAGGUCAAUUUUAGAGAGAUCCCCUCACAUGUGCUAUCAAAAGUGUGCAUGUAUUUUACCUACAAGGUC	0.14
UUGCUACUGACUCCCUGGGUCAAGUUCCUGUGGGAAUCAUACAGGCAGUGUUUGGACCUUCUUAGAAACAAUUCUAGAGUAGAGCGCCUUUACCAUGAUAUUGCCCAACAAGCUUUCAAA	0.191
CUGUGACCACAAGAUCCUACCUGAGUGUUCAGAUGGGUUGACUCCCUCUCCUUGCCUGAACCCCCCCCCACUGCCCCCCCAUCCCCCAGUGUCGGCUGAGAUGUUGCCUCUGCACGGUUC	1.32

Sample 2 — technique: RNA Bind-n-Seq; molecule type: RNA; sample: in vitro; concentration: 365 nM; reference: no-protein control; direction: higher = stronger binding
Target: RNA binding protein fox-1 homolog 2, RRM domain, GST-SBP tag (RBFOX2, Homo sapiens, UniProt O43251-10, residues 100-194)
Setting: natural RNA segment, single round, ends assumed
Shared flanks, not repeated: GGGAGUUCUACAGUCCGACGAUC … UGGAAUUCUCGGGUGCCAA
Residues (chain): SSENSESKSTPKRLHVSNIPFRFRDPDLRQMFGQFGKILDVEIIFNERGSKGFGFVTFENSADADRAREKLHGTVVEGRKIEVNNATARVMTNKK
Sequence	RBNS enrichment (R)
UUAUACGUGUAUGUGUGCCCUCUCCUUACAUACACACCCUGGAAUAGAGUUCUCACACCGUUCAAUUUUGCACAUAUGUCCUCAUGGAUCCCCAGUUUUGUCCCUCCACU	2.01
AUGGGGGCAAAUGGCCCUUUUGGCUGUCCCCUCGCCAGGUAAUGGUAGUUCCAGUGGGACCAACCUGUGAUGAAUAUGCCCAAAAGGUACGACAACAAUUCCACGAUGCC	0.331
AACUAGCUCCCUAAUGGUCUAUAAUUUUAUUUCUUUUGGCUUAAAGUGAAAAAGAAGAAAUAGAGAAUUCCAGCAGAAUUCAGUGGUUGUCUACUAUCCAUACUUCUUAU	0.328
CAAAGUAACAGAAGGUUAUUUGUAAGAAAGUUAAAGGCUUGUGAACAAAGAAAGCUAAGCUGUUGUACAUAUUUGUAGUUGGCUGUGCAUGGUACAAAUUUAUUAAUAUG	4.21
UCUCGGAUAUGGGUACUGUAUUUGAAAGCUGUUAGCUUUGUCAACACGCAUUGUCCUUGUCAUUUGGGCCCCGAGCUCUGACCCUCGUGUCUGACGCGGCCACCUCUUUC	0.281
CUGUUGGAUCAACAAAUAAAGGUUACAGUUUUGUAAGAGAAGUGAUUUGAAUACAUUUUUCUGGAACUAUUCAUAAUAUGAAGUUUUCCUAGAACCACUGAGUUUCUAGU	0.325
ACAUCCCUGGGAUGGUGUGCUGUCUGGGCACCACGGUCUCCAUCCUCACUCCUGAGAGAUUUCUGCCUUCUGUGAGUUGGGUUAAAGCUCUGGAAUUAUCUACUAUCCCA	0.287
GGAUUCUGUAGUGCUGAUAGAAAACCUGAAGAAAGCAGCUCCUUGAUGGGGAGAAGUGAUUUCUUUCUUGCCUUCAAUGUGACCCUGUGAAGAUUUAUUGCAUUCUCCAU	0.3

Sample 3 — technique: protein binding microarray; molecule type: double-stranded DNA, one strand shown; sample: in vitro; concentration: not given; reference: not given; direction: higher = stronger binding
Target: Histone acetyltransferase KAT6A, both winged helices, GST fusion (KAT6A, Homo sapiens, UniProt Q92794, residues 1-181)
Setting: 8-mer, flanks averaged, mean of 2 arrays, mostly near background
Construct (chain): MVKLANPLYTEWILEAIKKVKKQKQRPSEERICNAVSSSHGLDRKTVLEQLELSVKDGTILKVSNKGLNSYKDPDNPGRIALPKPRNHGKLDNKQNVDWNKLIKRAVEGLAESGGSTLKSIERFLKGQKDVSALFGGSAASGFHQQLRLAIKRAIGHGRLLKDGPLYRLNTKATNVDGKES
Sequence	E-score
CGATTTGC	0.0151
CACAACGC	0.127
AACGAAAG	-0.0118
ACGCATGC	0.191
ACTGTGAG	-0.0853
AATACTCT	-0.0999
GGAGTCTA	-0.152
AAGTGCGG	0.0575
GATGTTCC	0.018
GAGCCGCC	0.232
TAAGATCA	-0.0471
GCTAGCTA	-0.0149
AATGCGCA	0.31
GGAACCCC	0.0687
CCCGTGCG	0.311
AGGTAGCG	0.199
CATACGAG	-0.0564
AGTAGCAG	-0.301
ACAACTTA	-0.109
GCTCGATA	0.0326
CAGACCTC	0.0012

Sample 4 — technique: competition protein-binding microarray; molecule type: double-stranded DNA, one strand shown; sample: in vitro; concentration: 2 µM; with: Cbf1 competitor, 0.05 µM; direction: higher = stronger binding; shared flanks, not repeated: … GTCTTGATTCGCTTGACGCTGCTG
Target: Phosphate system positive regulatory protein PHO4, full length, GST-tagged (PHO4, Saccharomyces cerevisiae, UniProt P07270, residues 1-312)
Setting: whole 60-bp probe, lowest competitor level
Residues (chain): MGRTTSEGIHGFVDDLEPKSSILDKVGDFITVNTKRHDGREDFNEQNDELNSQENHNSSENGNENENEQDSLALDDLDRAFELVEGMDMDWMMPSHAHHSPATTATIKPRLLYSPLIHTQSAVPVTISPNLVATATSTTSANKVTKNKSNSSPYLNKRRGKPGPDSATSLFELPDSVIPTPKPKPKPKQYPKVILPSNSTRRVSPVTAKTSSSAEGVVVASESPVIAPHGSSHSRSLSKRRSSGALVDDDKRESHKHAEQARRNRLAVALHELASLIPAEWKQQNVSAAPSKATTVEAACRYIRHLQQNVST
Sequence	fluorescence intensity
CTAACGAAGGTTTGCATCGTGGGTGACAAGCCAAGT	11200 a.u.
TAGCAGGGGGATGAACATGTGAACATGTTGCAACAA	8250 a.u.
CGGGGTTAAGTTTTTCACGTGCAGTGCTTGCAGCAG	12900 a.u.
CACTGTTCTTTAAAGCACGTGCTTTTGGTACCAACC	19100 a.u.
AACCTGGAAGTGGGCCACATGTTGTAAAAGGAAGCT	10100 a.u.
CCGATTGGTTACAGTTCCGTGATGGGCAAGATTACT	3910 a.u.
CTGGTACTGAAGAATCACATGTGTGGAACGGTATAG	11300 a.u.
TGCGCAACAACTTGTCACACAACTTTATGTCTAGAA	3550 a.u.
CTTTCCCGATCTTGCCATGTGGGTGTAGCACATTTG	11400 a.u.
GTTCAATATACATCCTACGTGCAAAACGAACAATAG	7060 a.u.
ATTTCTCAATACCATCACGTGCGATCTAAGAAGATG	19600 a.u.
TGCGCAACAACTTTTCACGTGGATTTATGTCTAGAA	13700 a.u.
TGATTGCCTCCGACGCTCGTGACGGGTTCCTCCGAA	6290 a.u.
GGCCCCTAGATCCTGCTCGTGAACGATGGACTCGGC	4120 a.u.
AGCTACCGATTCCATCACGCTTCCTGGTACGGGTGC	4990 a.u.
ATCAGAAGACCGCGAAACGTGCCGATGCAACCTTTT	13400 a.u.
TGAATGTAGGTCCATCACGGGCTGCATTTAGTACAA	7200 a.u.
CGGGAGTGTTTTTTTTCCGTGCGGATTTTCTTAGCT	4160 a.u.
GTCTTGTCTCATTGTTTCGTGGGTGTCCCCACTTCA	6560 a.u.

A few entries again (sample 3):
Sequence	E-score
GCTAGCTA	-0.0149
AATGCGCA	0.31
GGAACCCC	0.0687
CCCGTGCG	0.311
AGGTAGCG	0.199
